Measurements gathered from unrelated publications.
Numbered parts are unrelated; each lists some results of a single study. Changes are numbered by the printed parent chain.

Sample 1 — technique: protein-binding microarray; molecule type: double-stranded DNA, one strand shown; matrix: in vitro; concentration: not given; direction: higher = stronger binding
Target: Hepatocyte nuclear factor 3-beta, forkhead domain (FOXA2, Homo sapiens, UniProt Q9Y261, residues 142-269)
Notes: k-mer, scored over probes, only values ≥0.25
Residues (chain): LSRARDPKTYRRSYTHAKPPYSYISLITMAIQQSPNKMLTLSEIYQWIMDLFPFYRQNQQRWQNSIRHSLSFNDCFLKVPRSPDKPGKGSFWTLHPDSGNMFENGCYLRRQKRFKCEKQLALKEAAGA
| Oligonucleotide | E-score |
| --- | --- |
| GTGTTAGA | 0.255 |
| TAATACTA | 0.313 |
| GTTGTCTA | 0.3 |
| ATAGTAAC | 0.345 |
| ATAATTCA | 0.253 |
| AATTATTG | 0.266 |
| ACTAGAAT | 0.267 |
| AATCACAT | 0.256 |

Sample 2 — technique: universal PBM; molecule type: double-stranded DNA, one strand shown; matrix: in vitro; concentration: not given; direction: higher = stronger binding
Target: Sal-like protein 4, full length isoform B (SALL4, Homo sapiens, UniProt Q9UJQ4-2, residues 1-616)
Notes: 8-mer, flanks averaged, mean of replicates
| Oligonucleotide | E-score |
| --- | --- |
| AGCATCTC | -0.0437 |
| AGTTTCAA | 0.147 |
| ATAGTAAT | 0.323 |
| AAACATGG | 0.11 |
| GTTAAGGA | 0.01 |
| CGTTTGTC | -0.0345 |
| AATGCTAG | 0.0649 |
| ATCACGGG | -0.255 |

Sample 3 — technique: protein binding microarray; molecule type: double-stranded DNA, one strand shown; matrix: in vitro; concentration: not given; reference: not given; direction: higher = stronger binding
Target: Histone acetyltransferase KAT6A, winged helix 1, GST fusion (KAT6A, Homo sapiens, UniProt Q92794, residues 1-85)
Notes: 8-mer, flanks averaged, mean of 2 arrays, mostly near background
Target sequence (chain): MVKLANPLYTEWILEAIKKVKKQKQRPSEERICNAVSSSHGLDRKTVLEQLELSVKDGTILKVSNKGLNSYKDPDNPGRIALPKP
| Oligonucleotide | E-score |
| --- | --- |
| AGCCGAGG | 0.0176 |
| ACGATAAA | 0.0393 |
| CATACGCA | 0.133 |
| CGTGGATA | 0.106 |
| CTTCATTA | -0.13 |
| TACAGGCA | -0.0695 |
| CTCTACAC | -0.139 |
| GTCGATGA | -0.0984 |

Other studies, line by line
Starting sequence: PafA, mature enzyme, eGFP fusion (Elizabethkingia meningoseptica, UniProt Q9KJX5); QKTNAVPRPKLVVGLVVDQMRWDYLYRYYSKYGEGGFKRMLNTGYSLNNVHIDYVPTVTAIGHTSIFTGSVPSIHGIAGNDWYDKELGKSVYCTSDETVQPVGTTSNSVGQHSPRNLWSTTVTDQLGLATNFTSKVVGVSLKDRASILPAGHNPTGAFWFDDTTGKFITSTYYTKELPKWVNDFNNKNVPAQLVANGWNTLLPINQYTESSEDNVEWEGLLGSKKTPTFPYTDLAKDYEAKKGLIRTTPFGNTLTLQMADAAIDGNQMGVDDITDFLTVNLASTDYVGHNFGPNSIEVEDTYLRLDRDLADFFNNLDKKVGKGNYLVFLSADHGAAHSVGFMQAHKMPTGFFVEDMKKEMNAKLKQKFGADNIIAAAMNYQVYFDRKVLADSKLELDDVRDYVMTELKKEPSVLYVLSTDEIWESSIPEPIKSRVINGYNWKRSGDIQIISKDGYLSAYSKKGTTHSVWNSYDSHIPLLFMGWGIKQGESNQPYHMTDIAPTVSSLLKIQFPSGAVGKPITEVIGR
| Substitution | target | test | system | setting | scale | endpoint | value |
| --- | --- | --- | --- | --- | --- | --- | --- |
| K319V | tungstate, free oxyanion | microfluidic competitive inhibition | in vitro, cell-free expressed | not given, derived from inhibition constants, unchanged parent 2230 nM | lower = stronger binding | oxyanion analog dissociation constant | 2.23 µM |

Repeated from above (sample 3):
| Oligonucleotide | E-score |
| --- | --- |
| CATACGCA | 0.133 |
| CGTGGATA | 0.106 |
| CTTCATTA | -0.13 |
